# Assay results collected from several papers.
# Target: Casein kinase I isoform epsilon (CSNK1E, Homo sapiens, UniProt P49674)
SMILES,test,conditions,scale,endpoint,value
NC(=O)[C@@H](O)C[C@H]1CCc2sc3ncnc(O[C@H]4CC[C@H](N5CCOCC5)CC4)c3c21,"enzyme activity, inhibitor",10 µM,,inhibition,16%
Nc1ncc(-c2cc(-c3cnn(CC(F)(F)F)c3)ncc2F)nc1C(=O)NC1CNCC(F)C1 (stereo not drawn),enzyme activity,1 µM,baseline: DMSO control,remaining activity,101%
CN1CCN(Cc2ccc(-c3ccc(CO[C@H]4CCC[C@@H]4NC(=O)c4cc(-c5cnn(C)c5)cnc4N)cc3)cc2)CC1,"enzyme activity, inhibitor",0.1 µM,,inhibition,5%
Cc1cccc(O[C@H]2CCC[C@@H](C(C)CNCc3ccncc3)C2)c1 (relative stereo),"enzyme activity, inhibitor",10 µM,,inhibition,-8%
C=CC(=O)N1Cc2nc(-c3cc(-c4cc(Cl)cnc4Cl)c(F)cc3F)n(-c3ccncn3)c2C1,"enzyme activity, inhibitor",1 µM,,inhibition,6%
O=c1c(-c2ccc(Cl)c(CN3CCOCC3)c2)coc2cc(O)ccc12,"enzyme activity, inhibitor",1 µM,,remaining activity,108%
COc1c(Cl)cccc1Nc1c(-c2ccncc2C#C[C@@]2(C)CCCN2C(=O)/C=C/CN(C)C)[nH]c2c1C(=O)NCC2,"binding, competition with immobilised ligand",3 µM,,remaining binding,60%
CCn1cc(C(=O)O)c(=O)c2c(N)c(F)c(NC3CCCCC3)cc21,kinase activity,"0.1 µM, with: ATP at Km",,inhibition,-1.8%
CNC1C[S+]2CC[S+]3CC[S+](C1)[Ru-4]321([N]=C=S)[n]2c3ccc(OC)cc3c3c4c(c5cc(F)c[n+]1c5c32)C(=O)NC4=O (stereo not drawn),KinomeScan,0.1 µM,baseline: untreated,remaining binding,100%
COc1cc(Nc2nccc(-c3cnn4nc(OC)ccc34)n2)cc(C(F)(F)F)c1,"binding, competition with immobilised ligand",1 µM,,remaining binding,100%
Cc1ccc(-c2c(/C=C(\C#N)C(=O)NC(C)C)n(CCCO)c3ncnc(N)c23)cc1,"cell-free assay, competition with immobilised ligand",1 µM,,remaining binding,54%
Cc1cc(NC(=O)[C@H](O)c2cc(F)cc(F)c2)ccc1-c1cnc(N)c(C(=O)NC(C)C)c1,"binding, competition with immobilised ligand",1 µM,,remaining binding,83%

# Excerpt of the above:
SMILES,test,conditions,scale,endpoint,value
CN1CCN(Cc2ccc(-c3ccc(CO[C@H]4CCC[C@@H]4NC(=O)c4cc(-c5cnn(C)c5)cnc4N)cc3)cc2)CC1,"enzyme activity, inhibitor",0.1 µM,,inhibition,5%
